Results from different studies.
Each line is one published result; not all experiments were run side by side.
Cell line: HEK-293T

With [Cl][Pd-2]1([Cl])[N+](=P(c2ccccc2)(c2ccccc2)C2C=CC=C2)Cc2cccc[n+]21.[Cl][Pd-2]1([Cl])[N+](=P(c2ccccc2)(c2ccccc2)C2C=CC=C2)Cc2cccc[n+]21.[Fe+2] the IC50 was 5.6 µM (cell growth or viability, MTT; 74 h).
Cc1ccc(C(C)C)cc1.[Cl-].[Cl-].[Fe+2].[Ru+2].c1cc[cH-]c1.c1ccc(P(=NCc2ccccn2)(c2ccccc2)[c-]2cccc2)cc1 gave an IC50 of 114 µM (cell growth or viability, MTT; 24 h).
O=C1c2cccc[c]2[Au-]([Cl])([Cl])[N+]1=P(c1ccccc1)(c1ccccc1)c1ccccc1 gave an IC50 of 14.6 µM (cell growth or viability, MTT; 24 h).
Cc1ccc(C(C)C)cc1.F[P-](F)(F)(F)(F)F.O=C(N=P(c1ccccc1)(c1ccccc1)c1ccccc1)c1ccccn1.[Cl-].[Ru+2] has an IC50 of 2.8 µM (cell growth or viability, MTT; 24 h).
With O=C(O)c1ccc([P+]([Au-][Cl])(c2ccccc2)c2ccccc2)cc1 the IC50 was 31 µM (cell growth or viability, XTT; 72 h).
The IC50 of Cc1ccc(C(C)C)cc1.O=C(N=P12CN3CN(CN(C3)C1)C2)c1[c-]cccc1.[Cl-].[Ru+2] is reported as 142 µM (cell growth or viability, MTT; 24 h).
The IC50 of [Cl][Pd-2]1([Cl])[N+](=P(c2ccccc2)(c2ccccc2)c2ccccc2)Cc2cccc[n+]21 is reported as 45 µM (cell growth or viability, MTT; 74 h).
CC1(C)CCN(Cc2ccc(C(=O)NC[C@]3(O)CCCN(c4cc(NCc5ccccc5)ncn4)C3)c(O)c2)CC1 gave an IC50 of 15 µM (m6A mRNA level, UPLC-MS/MS; 16 h).
The IC50 of [Cl][Au+][Cl].[O-][Cl+3]([O-])([O-])[O-].c1ccc(P(=NCc2ccccn2)(c2ccccc2)c2ccccc2)cc1 is reported as 30.5 µM (cell growth or viability, MTT; 74 h).
The IC50 of O=C([O][Ti+2][O]C(=O)c1ccc([P+]([Au-][Cl])(c2ccccc2)c2ccccc2)cc1)c1ccc([P+]([Au-][Cl])(c2ccccc2)c2ccccc2)cc1.c1cc[cH-]c1.c1cc[cH-]c1 is reported as 39 µM (cell growth or viability, XTT; 24 h).
O=C(N=P12CN3CN(CN(C3)C1)C2)c1cccc[c]1[Au]([Cl])[Cl] gave an IC50 of greater than 125 µM (cell growth or viability, MTT; 24 h).
For [Cl][Au-]1([Cl])[N+](=P(c2ccccc2)(c2ccccc2)C2C=CC=C2)Cc2cccc[n+]21.[Cl][Au-]1([Cl])[N+](=P(c2ccccc2)(c2ccccc2)C2C=CC=C2)Cc2cccc[n+]21.[Fe+2].[O-][Cl+3]([O-])([O-])[O-].[O-][Cl+3]([O-])([O-])[O-], the IC50 was 4 µM (cell growth or viability, MTT; 74 h).
